Measurements pooled from the literature.
Numbered parts are unrelated; each lists some results of a single study. Changes are numbered by the printed parent chain.

Set 1 — method: protein-binding microarray; molecule type: double-stranded DNA, one strand shown; sample: in vitro; concentration: 0.8 µM; setting: whole 60-bp probe, no competitor; reading: higher = stronger binding; endpoint: fluorescence intensity; all sequences stand within: … GTCTTGATTCGCTTGACGCTGCTG
Target: Centromere-binding protein 1, full length, N-terminal tag (CBF1, Saccharomyces cerevisiae, UniProt P17106, residues 1-351)
Sequence of UniProt P17106 (whole entry, looked up): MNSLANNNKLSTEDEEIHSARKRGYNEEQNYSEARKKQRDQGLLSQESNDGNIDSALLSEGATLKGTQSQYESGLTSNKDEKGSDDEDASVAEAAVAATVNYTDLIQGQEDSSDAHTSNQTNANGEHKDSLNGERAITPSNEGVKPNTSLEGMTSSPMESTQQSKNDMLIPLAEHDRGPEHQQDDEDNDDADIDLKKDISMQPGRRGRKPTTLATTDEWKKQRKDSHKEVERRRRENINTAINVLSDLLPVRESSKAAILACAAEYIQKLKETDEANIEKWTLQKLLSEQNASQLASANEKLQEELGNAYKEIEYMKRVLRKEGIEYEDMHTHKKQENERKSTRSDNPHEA
Oligonucleotide = CTATTTTTCGTGACGCACATGTCTTCAACTGCATTC; value = 751 a.u.
Oligonucleotide = GAAGTATAAGGCTACGTGGTGGCCTTGAATTCGTAG; value = 478 a.u.
Oligonucleotide = GAAGGCGTTCATCATCACGCCAACATATTTCTTTAG; value = 682 a.u.
Oligonucleotide = GAACTTTATAGAGAAAATCTGATGCAGCAAGATTAG; value = 547 a.u.
Oligonucleotide = GAAACCATCATTCATCATCACTTATCATTATCATAG; value = 520 a.u.
Oligonucleotide = GAAACACTGGTTTTGGACGTCACAAGAGCATCTTAG; value = 630 a.u.
Oligonucleotide = CTACTATGACCTGTTCACGTGGCCAAATGTTCTTTC; value = 4430 a.u.
Oligonucleotide = GAACTGATGCTTTCTCTGCTGATGCCAACACCATAG; value = 742 a.u.
Oligonucleotide = GAAACATTTTCACATCACGTTTCTTTTTTTTCTTAG; value = 3490 a.u.
Oligonucleotide = CTAATGTCTATTGGTGACGCCTGGTCTGGATTCTTC; value = 520 a.u.
Oligonucleotide = GAATCCAAGTCAGGACACGGGGAAAATCTTTACTAG; value = 729 a.u.

Set 2 — target: CCND2, cyclin fold, Cln2 fusion (human); method: yeast growth competition, sequencing; sample: yeast; setting: weak parent motif; baseline: not given; reading: higher = stronger binding; endpoint: normalised enrichment score
Starting sequence: SLBP docking peptide (human); ARYKRKLLINDFG
Substitution = R2G; value = 0.644
Substitution = G13I; value = -0.205
Substitution = Y3P; value = 0.0711
Substitution = Y3L; value = 0.897
Substitution = R2Q; value = 0.65
Substitution = R5T; value = -0.197

Set 3 — method: RNA Bind-n-Seq; molecule type: RNA; sample: in vitro; concentration: 200 nM; setting: whole 134-nt RNA, ends assumed; added: 150 mM LiCl; baseline: input library; reading: higher = stronger binding; endpoint: log2 enrichment; all molecules: 7-deaza-guanosine replaces G
Target: Fragile X messenger ribonucleoprotein 1, C-terminal low-complexity region (Fmr1, Mus musculus, UniProt P35922)
All sequences stand within: GGGAGUUCUACAGUCCGACGAUC … UGGAAUUCUCGGGUGUCAAGG
Oligonucleotide = ACCAUGCAGGUGGGCAUCUUUGGGAAGUGGGGCAAGGGGGAAAUAGGGAGGGGGGUAACACUUUGGGAACAGGUGGUCCCAGGUCGUUUC; value = 1.13
Oligonucleotide = UCAAGUCCUGUGCUACACAUCGUAUGUACCGAAUCGGAAAGGUUUUUGGUUUGGAAAGUAUUAUGUUACGCCGUUCGGAUCUGCACUUCC; value = -2.26
Oligonucleotide = UCAAGUCCUGUGCUACACAUCGUAUGUACCGAAUCGGUUUUUGGUUUGGAAAGGAAAGUAUUAUGUUACGCCGUUCGGAUCUGCACUUCC; value = -1.19
Oligonucleotide = CACAGACAACACGCACCCACACAGACACAGAGGGAAGGGGUUGGGAUGGGGACAGGGUGCACAGCAUGGCGGGGUAGGACCCCAGCCCCU; value = 0.0958
Oligonucleotide = AGUCCUGUGCUACACAUCGUAUGUACCGAAUCGGUUUUUGGAAAAAAAGGAAAAAGGAAAGUAUUAUGUUACGCCGUUCGGAUCUGCACU; value = -2.98
Oligonucleotide = GUCCUGUGCUACACAUCGUAUGUACCGAAUCGGGUUUGGGAAAAAAAGGGAAAAAGGGAAAGUAUUAUGUUACGCCGUUCGGAUCUGCAC; value = -0.337
Oligonucleotide = UGGCCCUGGUGGCAUGCGGGGAGGAAGAGGUGGCCUCAUGGAUCGUGGCGGUCCCGGUGGAAUGUUCAGAGGUGGCCGUGGUGGAGACAG; value = -0.243
Oligonucleotide = AAGUCCUGUGCUACACAUCGUAUGUACCGAAUCGGGGAAAAAGGGGAGGGGAGGGGAAAGUAUUAUGUUACGCCGUUCGGAUCUGCACUU; value = 0.595

Single results of other studies
Substance = PhoQ, residues 284 288 289 292 302 303 SVTLVV; target = PhoP, residues 12 14 15 18 19 AQCLL (Escherichia coli, UniProt P23836); assay = Sort-seq, measured: YFP reporter; test system = E. coli; conditions = PhoQ-PhoP variant library, added: 10 µM Mg2+; how to read = baseline: high Mg2+ state, higher = stronger signaling; endpoint = fold induction; value = 1.3

For quick reference, copied from above (set 3):
Oligonucleotide = UCAAGUCCUGUGCUACACAUCGUAUGUACCGAAUCGGAAAGGUUUUUGGUUUGGAAAGUAUUAUGUUACGCCGUUCGGAUCUGCACUUCC; value = -2.26
Oligonucleotide = UCAAGUCCUGUGCUACACAUCGUAUGUACCGAAUCGGUUUUUGGUUUGGAAAGGAAAGUAUUAUGUUACGCCGUUCGGAUCUGCACUUCC; value = -1.19
Oligonucleotide = CACAGACAACACGCACCCACACAGACACAGAGGGAAGGGGUUGGGAUGGGGACAGGGUGCACAGCAUGGCGGGGUAGGACCCCAGCCCCU; value = 0.0958
